# Assay results pooled from the literature.
# Parts stem from different laboratories: compare values within a part only. Changes are numbered by the printed parent chain.

# Set 1
# Target: CCND2, cyclin fold, Cln2 fusion (human)
# Technique: yeast growth competition, sequencing
# Sample: yeast
# Setting: weak parent motif
# Relative to: not given
# Reading: higher = stronger binding
# Starting sequence: ORC1 docking peptide (human); PRARKRLELGNLG; partner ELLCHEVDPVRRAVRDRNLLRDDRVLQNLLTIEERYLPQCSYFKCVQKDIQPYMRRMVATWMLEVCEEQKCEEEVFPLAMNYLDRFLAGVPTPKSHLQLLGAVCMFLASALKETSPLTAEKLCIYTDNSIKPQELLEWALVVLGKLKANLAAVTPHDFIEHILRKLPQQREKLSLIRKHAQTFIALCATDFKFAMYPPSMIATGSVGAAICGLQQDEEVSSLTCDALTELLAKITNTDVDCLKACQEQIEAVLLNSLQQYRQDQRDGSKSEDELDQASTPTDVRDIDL
Change,normalised enrichment score
G13N,-0.102
R4H,0.453
L7R,0.505
G10K,-0.0521
L12Y,-0.15
N11F,0.243
E8G,-0.183
N11V,0.661
R2C,-0.194
N11L,0.287
K5F,0.2
E8C,0.22
E8F,-0.135
E8K,0.0898
G13S,0.23
G10Y,1.28
L9M,0.29
N11E,-0.351
L12Q,-0.0536
R6D,0.394
E8S,-0.17
G10M,0.727
A3L,-0.194
G13V,-0.00823
L9T,0.0594

# Set 2
# Target: ABI1, truncated, D143A, DHFR fusion (Arabidopsis thaliana)
# Technique: DHFR PCA, deep sequencing
# Sample: yeast
# Setting: methotrexate growth selection, single substitutions
# Added: (+)-ABA 17 µM
# Relative to: wild-type fitted maximum
# Reading: higher = stronger binding
# Starting sequence: PYL1, truncated, DHFR fusion (Arabidopsis thaliana); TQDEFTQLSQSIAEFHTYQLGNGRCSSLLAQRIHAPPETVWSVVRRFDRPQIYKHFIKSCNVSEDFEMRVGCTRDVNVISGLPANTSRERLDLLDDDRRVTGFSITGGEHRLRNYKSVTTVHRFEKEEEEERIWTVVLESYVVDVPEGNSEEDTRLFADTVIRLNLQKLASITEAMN; partner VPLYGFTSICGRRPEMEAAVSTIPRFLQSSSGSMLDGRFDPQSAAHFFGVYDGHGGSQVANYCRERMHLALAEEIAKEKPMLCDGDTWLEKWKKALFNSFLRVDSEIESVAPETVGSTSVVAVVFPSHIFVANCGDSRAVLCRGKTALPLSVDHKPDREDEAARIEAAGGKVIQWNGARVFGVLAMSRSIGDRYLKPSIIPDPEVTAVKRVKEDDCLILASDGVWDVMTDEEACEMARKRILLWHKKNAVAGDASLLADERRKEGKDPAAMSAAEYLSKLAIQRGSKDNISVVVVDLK
Change,relative binding score [%]
V44S,1.61
V70P,85.6
D65Q,80.8
D96G,14.1
T154A,53.1
S171Y,77.5
G81Y,-11.9
I12E,-3.59
V137G,-1.21
I79Y,81.6
R49D,39.3
E174K,50.5
M176D,83.9
S140I,-9.98
V136R,-0.736
S42K,81.5
A30P,20.4

# Set 3
# Target: UBE2S UBC core domain (UniProt Q16763)
# Technique: yeast two-hybrid
# Sample: yeast
# Setting: mostly zero background
# Relative to: not given
# Reading: higher = stronger interaction
# B1: RNF186 RING domain (UniProt Q9NXI6); chain HSGSTECDLECLVCREPYSCPRLPKLLACQHAFCAICLKLLLCVQDNTWSITCPLCRKVTAVPGGLI
# B2: TRIM11 RING domain (UniProt Q96F44); chain LSTNLQEEATCAICLDYFTDPVMTDCGHNFCRECIRRCWGQPEGPYACPECRELSPQRNLRP
# B3: TRIM41 RING domain (UniProt Q8WV44); chain PVQTLQEEAVCAICLDYFTDPVSIGCGHNFCRVCVTQLWGGEDEEDRDELDREEEEEDGEEE
# B4: MID2 RING domain (UniProt Q9UJV3); chain KMETLESELTCPICLELFEDPLLLPCAHSLCFSCAHRILVSSCSSGESIEPITAFQCPTCRYVISLNHRGL
# B5: RNF182 RING domain (UniProt Q8N6D2); chain AESQASDELECKICYNRYNLKQRKPKVLECCHRVCAKCLYKIIDFGDSPQGVIVCPFCRFETCLPDDEV
# B6: HLTF RING domain (UniProt Q14527); chain LILSSGSDEECAICLDSLTVPVITHCAHVFCKPCICQVIQNEQPHAKCPLCRNDIHEDNLLE
# B7: ZNRF4 RING domain (UniProt Q8WWF5); chain VRTFTWHNDLCAICLDEYEEGDQLKILPCSHTYHCKCIDPWFSQAPRRSCPVCKQSVAATEDSF
# B8: ARIH2 RING domain (UniProt O95376); chain HVPTSHPPHHCAVCMQFVRKENLLSLACQHQFCRSCWEQHCSVLVKDGVGVGVSCMAQDCPLRTPEDFVF
# B9: MARCHF1 RING domain (UniProt Q8TCQ1); chain TAPRSQSRLSVCPSTQDICRICHCEGDEESPLITPCRCTGTLRFVHQSCLHQWIKSSDTRCCELCKYDFIMETKLKPLRKWE
# Construct (chain): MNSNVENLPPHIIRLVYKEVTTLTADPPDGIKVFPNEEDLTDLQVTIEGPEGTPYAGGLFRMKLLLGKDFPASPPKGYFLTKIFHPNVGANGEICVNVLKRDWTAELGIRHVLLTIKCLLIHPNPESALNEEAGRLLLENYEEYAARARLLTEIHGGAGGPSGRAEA
Molecule,lacZ reporter activity
FDPPLESKYECPICLMALREAVQTPCGHRFCKACIIKSIRDAGHKCPVDNEILLENQLFP (TRAF6 RING domain (UniProt Q9Y4K3)),0
B1 (RNF186 RING domain),0
ASEEEFQFLRCQQCQAEAKCPKLLPCLHTLCSGCLEASGMQCPICQAPWPLGADTP (PML RING domain (UniProt P29590)),0
B2 (TRIM11 RING domain),0
B3 (TRIM41 RING domain),0
B4 (MID2 RING domain),0
B5 (RNF182 RING domain),0
FAEQPSVKLCCQLCCSVFKDPVITTCGHTFCRRCALKSEKCPVDNVKLTVVVNNI (TRAF7 RING domain (UniProt Q6Q0C0)),0
B6 (HLTF RING domain),0
B7 (ZNRF4 RING domain),0
B8 (ARIH2 RING domain),0
DDVLTKDAGECVICLEELLQGDTIARLPCLCIYHKSCIDSWFEVNRSCPEHPAD (ZNRF1 RING domain (UniProt Q8ND25)),0
B9 (MARCHF1 RING domain),0

# Set 4
# Target: Fragile X messenger ribonucleoprotein 1, C-terminal low-complexity region (Fmr1, Mus musculus, UniProt P35922)
# Technique: RNA Bind-n-Seq
# Molecule type: RNA
# Sample: in vitro
# Concentration: 200 nM
# Setting: whole 134-nt RNA, ends assumed
# Added: 150 mM KCl
# Relative to: input library
# Reading: higher = stronger binding
# All sequences stand within: GGGAGUUCUACAGUCCGACGAUC … UGGAAUUCUCGGGUGUCAAGG
Strand,log2 enrichment
AAGUCCUGUGCUACACAUCGUAUGUACCGAAUCGGGCCCCGGGCCCCGGGCCCCGGGAAAGUAUUAUGUUACGCCGUUCGGAUCUGCACU,-0.819
UCAAGUCCUGUGCUACACAUCGUAUGUACCGAAUCGGAAAGGAAAGGGAAAGGGGAAAGUAUUAUGUUACGCCGUUCGGAUCUGCACUUC,-0.494
CCUCAAGUCCUGUGCUACACAUCGUAUGUACCGAAUCGGGAGGAGGGGAGGGGAAAGUAUUAUGUUACGCCGUUCGGAUCUGCACUUCCA,1.35
UCAAGUCCUGUGCUACACAUCGUAUGUACCGAAUCGGGUGGGUGGGAAAAAGGGAAAGUAUUAUGUUACGCCGUUCGGAUCUGCACUUCC,1.08
UCCUCAAGUCCUGUGCUACACAUCGUAUGUACCGAAUCGGUGGAAAGGUGGAAAGUAUUAUGUUACGCCGUUCGGAUCUGCACUUCCAGC,-0.321
CAAGUCCUGUGCUACACAUCGUAUGUACCGAAUCGGGGAAAGGGGUGGGGAGGGGAAAGUAUUAUGUUACGCCGUUCGGAUCUGCACUUC,1.26
AGUCCUGUGCUACACAUCGUAUGUACCGAAUCAAACCCAAAUUUAAACCCCCCCAAAAAAGUAUUAUGUUACGCCGUUCGGAUCUGCACU,-0.175
UUGGACUUGGAGCAUCUGCUCAGUGAGUCUCCAGAAGGAAGUCCCUUCCGAGAUAUGGAUGAUGGAAGUGAUUCCCUUGGGGUGGGAUUG,-1.92
CACAGACAACACGCGCCCACACAGACACAGAGGGAAGGGGUUGGGAUGGGGACAGGGUGCACAGCAGGGCGGGGUAGGACCCCAGCCCCU,1.35
CCUGUGCUACACAUCGUAUGUACCGAAUCGGGAAAAAAAGGGUUUUUGGGUUUUUUUGGGAAAGUAUUAUGUUACGCCGUUCGGAUCUGC,-0.687
UCCUGUGCUACACAUCGUAUGUACCGAAUCGGGGCCCCCCGGCCCCCCGGCCCCCCGGGAAAGUAUUAUGUUACGCCGUUCGGAUCUGCA,-0.428
GUCCUGUGCUACACAUCGUAUGUACCGAAUCGGGAAAAAAAGGGAAAGGGAAAAAGGGAAAGUAUUAUGUUACGCCGUUCGGAUCUGCAC,-0.502
AAGUCCUGUGCUACACAUCGUAUGUACCGAAUCGGGGCCCGGGGCCCGGGCCCGGGGAAAGUAUUAUGUUACGCCGUUCGGAUCUGCACU,-1.13
GUCCUGUGCUACACAUCGUAUGUACCGAAUCAAACCCAAAUUUUUAAAUUUUUUUAAAAAAGUAUUAUGUUACGCCGUUCGGAUCUGCAC,-0.0399

# Set 5
# Target: MAFF, bZIP domain (human)
# Technique: DHFR protein complementation
# Sample: yeast
# Setting: single substitutions, most at no-binding floor
# Relative to: wild-type JUN-FOS pair
# Reading: higher = stronger binding
# Starting sequence: JUN, bZIP domain (human); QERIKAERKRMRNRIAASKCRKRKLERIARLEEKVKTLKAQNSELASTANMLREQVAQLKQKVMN; partner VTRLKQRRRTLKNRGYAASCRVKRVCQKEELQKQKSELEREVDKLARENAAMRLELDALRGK
Change,binding fitness
A29N,-1.36 natural log
E33V,-1.22 natural log
L31A,-1.43 natural log
A29E,-1.26 natural log
R53Q,-1.39 natural log
Q41W,-1.43 natural log
S43A,-1.38 natural log
A46R,-1.37 natural log
E54G,-1.46 natural log
L31T,-1.4 natural log
M51V,-1.37 natural log
L31C,-1.43 natural log
N42Y,-0.981 natural log
V35Y,-1.32 natural log
M51K,-1.23 natural log
Q41V,-1.49 natural log

# A few entries again (set 4):
Strand,log2 enrichment
AAGUCCUGUGCUACACAUCGUAUGUACCGAAUCGGGCCCCGGGCCCCGGGCCCCGGGAAAGUAUUAUGUUACGCCGUUCGGAUCUGCACU,-0.819
UCAAGUCCUGUGCUACACAUCGUAUGUACCGAAUCGGGUGGGUGGGAAAAAGGGAAAGUAUUAUGUUACGCCGUUCGGAUCUGCACUUCC,1.08
CAAGUCCUGUGCUACACAUCGUAUGUACCGAAUCGGGGAAAGGGGUGGGGAGGGGAAAGUAUUAUGUUACGCCGUUCGGAUCUGCACUUC,1.26
UCCUGUGCUACACAUCGUAUGUACCGAAUCGGGGCCCCCCGGCCCCCCGGCCCCCCGGGAAAGUAUUAUGUUACGCCGUUCGGAUCUGCA,-0.428
CACAGACAACACGCGCCCACACAGACACAGAGGGAAGGGGUUGGGAUGGGGACAGGGUGCACAGCAGGGCGGGGUAGGACCCCAGCCCCU,1.35
UCAAGUCCUGUGCUACACAUCGUAUGUACCGAAUCGGAAAGGAAAGGGAAAGGGGAAAGUAUUAUGUUACGCCGUUCGGAUCUGCACUUC,-0.494
AAGUCCUGUGCUACACAUCGUAUGUACCGAAUCGGGGCCCGGGGCCCGGGCCCGGGGAAAGUAUUAUGUUACGCCGUUCGGAUCUGCACU,-1.13
UCCUCAAGUCCUGUGCUACACAUCGUAUGUACCGAAUCGGUGGAAAGGUGGAAAGUAUUAUGUUACGCCGUUCGGAUCUGCACUUCCAGC,-0.321
GUCCUGUGCUACACAUCGUAUGUACCGAAUCGGGAAAAAAAGGGAAAGGGAAAAAGGGAAAGUAUUAUGUUACGCCGUUCGGAUCUGCAC,-0.502
GUCCUGUGCUACACAUCGUAUGUACCGAAUCAAACCCAAAUUUUUAAAUUUUUUUAAAAAAGUAUUAUGUUACGCCGUUCGGAUCUGCAC,-0.0399
CCUGUGCUACACAUCGUAUGUACCGAAUCGGGAAAAAAAGGGUUUUUGGGUUUUUUUGGGAAAGUAUUAUGUUACGCCGUUCGGAUCUGC,-0.687
UUGGACUUGGAGCAUCUGCUCAGUGAGUCUCCAGAAGGAAGUCCCUUCCGAGAUAUGGAUGAUGGAAGUGAUUCCCUUGGGGUGGGAUUG,-1.92
AGUCCUGUGCUACACAUCGUAUGUACCGAAUCAAACCCAAAUUUAAACCCCCCCAAAAAAGUAUUAUGUUACGCCGUUCGGAUCUGCACU,-0.175
